Assay results gathered from unrelated publications.
Each numbered part is a random draw from the data of one study; scales do not carry over between parts. Positions count from the first letter of the parent shown.

Block 1 — technique: RNA Bind-n-Seq; form: RNA; medium: in vitro; concentration: 200 nM; setting: whole 134-nt RNA, ends assumed; added: 150 mM LiCl; reference: input library; reading: higher = stronger binding; all molecules: 7-deaza-guanosine replaces G
Target: Ras GTPase-activating protein-binding protein 1, full length (G3BP1, Homo sapiens, UniProt Q13283)
UniProt Q13283, sequence (whole entry, looked up): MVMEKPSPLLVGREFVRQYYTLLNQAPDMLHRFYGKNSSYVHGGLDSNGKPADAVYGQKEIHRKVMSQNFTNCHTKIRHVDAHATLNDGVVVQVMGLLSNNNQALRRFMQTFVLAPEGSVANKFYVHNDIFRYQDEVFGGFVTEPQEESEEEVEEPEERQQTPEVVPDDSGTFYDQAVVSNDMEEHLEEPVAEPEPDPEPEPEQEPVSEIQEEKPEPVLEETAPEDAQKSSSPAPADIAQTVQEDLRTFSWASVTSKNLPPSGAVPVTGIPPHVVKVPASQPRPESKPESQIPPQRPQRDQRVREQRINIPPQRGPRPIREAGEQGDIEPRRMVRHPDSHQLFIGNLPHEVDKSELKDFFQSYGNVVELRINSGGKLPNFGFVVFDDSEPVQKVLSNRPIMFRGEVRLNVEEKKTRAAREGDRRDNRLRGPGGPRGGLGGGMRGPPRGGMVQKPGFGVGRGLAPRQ
All sequences stand within: GGGAGUUCUACAGUCCGACGAUC … UGGAAUUCUCGGGUGUCAAGG
Oligonucleotide | log2 enrichment
GCAGGAAGUAAAAACAAAUGGAAAUGCUUCGGAUAGUGGCAGGGGUGGGGGUUGCUAAGGAAAGGGUUGGAUGGGAGUGGGUAAAGAGUU | 0.172
UCCUGUGCUACACAUCGUAUGUACCGAAUCGGGGAAAAAAAGGGGAAAGGGGUUUGGGGAAAGUAUUAUGUUACGCCGUUCGGAUCUGCA | 0.00509
UCAAGUCCUGUGCUACACAUCGUAUGUACCGAAUCGGGGAAGGGGAAGGGAAGGAAAGUAUUAUGUUACGCCGUUCGGAUCUGCACUUCC | -0.768
UGGCCCUGGUGUCAUGCGGGGAGGAAGAGGUGGCCUCAUGGAUCGUGGUGGUCCCGGUGGAAUGUUCAGAGGUGGCCGUGGUGGAGACAG | 0.101
UGUGCUACACAUCGUAUGUACCGAAUCGGGCCCCCCCGGGGCCCCCCCGGGGCCCCCCCGGGGAAAGUAUUAUGUUACGCCGUUCGGAUC | -0.8
ACCAUGCAGGUGGGCAUCUUUGAAAAGUGGGGCAAGGGGGGGAUAGGGAGGGGGGUAACACUUUGGGAACAGGUGGUCCCAGGUCGUUUC | 0.399

Block 2 — technique: protein-binding microarray; form: double-stranded DNA, one strand shown; medium: in vitro; concentration: 250 nM; setting: 60-bp whole probe; added: salmon DNA 0.4 mg/ml; reference: random background probes; reading: higher = stronger binding; all sequences stand within: GCCTAGCAC … GTCTTGATTCGCTTGACGCTGCTG
Target: Interferon regulatory factor 5, full length, phosphomimetic (IRF5, Homo sapiens, UniProt Q13568-2, residues 1-514, K96S/S451D/S453D/S456D/S462D)
Oligonucleotide | log fluorescence [z-score]
GACGATCTCAGACTGGTGACGTGCTAG | -0.358
TCACTTCTCCCTTTCAGACTGTGCTAG | 0.911
GACGGTTTCGGTCTCGTGACGTGCTAG | 9.69
TTAGGACTGCTTTTCCTGTAGTGCTAG | -0.0255
GACGGTATCGACAATCGGGACGTGCTA | 1.85
CCGCTTTTTTTTTTTTTTTTGTGCTAG | 0.788
GACGAACTGGGGTATAGAGACGTGCTA | -0.34
GACGATATTAGTTTCGAGACGTGCTAG | 7.01
TTAGGTATCGGAACTGGGTTAGTGCTA | 2.57
TATCAGCAAACTTTTCTTGAGTGCTAG | 3.06
TTTTTTTTTTTTTACTTCGGGTGCTAG | 1.28
TTAGGTTTCCTTTCGCTTTAGTGCTAG | 7.28
CGTAAGCAAAAATGATTGGTGTGCTAG | 0.252
GACGAACTGGGATATCGAGACGTGCTA | -0.0218
TCACTTACCTCACTCGTACTGTGCTAG | 0.412
TTTTCATTGTTTTTCATCATGTGCTAG | 3.3
TTAGATTTCGGTCTCGATTAGTGCTAG | 8.03
TTAGGTATCGGGAATCGGTTAGTGCTA | 2.39
TTGCATCTGGGTATTTTTCTGTGCTAG | 0.732
GACGATTTCGGGTATCGAAACGTGCTA | 6.34
TTAGGTTTCGACACTGAGTTAGTGCTA | 6.19
GACGGTTTCGGACTGGGGATGTGCTAG | 3.86
TTAGGGTTCCTACTGCTTTAGTGCTAG | -0.238
GACGGTTCACTTTTCCTGACGTGCTAG | 0.289
GACGGTTTCCTTTCCTTGACGTGCTAG | 1.08

Block 3 — technique: aptamer microarray, sandwich; form: DNA with 2'F-ANA; medium: in vitro; concentration: 200 nM; added: Cy3 exosite-II aptamer, 400 nM; reading: higher = stronger binding; oligonucleotide: GGTTGGTGTGGTTGG
Target: Prothrombin, mature alpha-thrombin (F2, Homo sapiens, UniProt P00734)
Setting: whole 15-mer aptamer, many near background
Modification | mean fluorescence intensity [a.u.]
2'F-ANA at 2 3 4 6 7 8 11 | 542
2'F-ANA at 1 4 7 9 11 13 | 71.8
2'F-ANA at 1 2 5 6 10 12 13 14 | 46.2
2'F-ANA at 1 2 5 6 9 10 12 | 47
2'F-ANA at 1 2 3 5 7 8 9 10 11 12 14 15 | 49.2
2'F-ANA at 1 2 4 5 6 9 11 12 13 15 | 65.9
2'F-ANA at 3 4 7 10 11 12 13 | 307
2'F-ANA at 3 4 5 9 14 | 75.7
2'F-ANA at 3 4 8 12 14 | 448
2'F-ANA at 4 5 10 11 13 14 15 | 59.9
2'F-ANA at 3 4 5 9 11 13 14 15 | 48.5
2'F-ANA at 1 7 8 10 15 | 57.1
2'F-ANA at 1 6 7 8 11 13 15 | 189
2'F-ANA at 2 3 8 9 15 | 797
2'F-ANA at 1 3 5 6 7 8 9 11 15 | 125
2'F-ANA at 1 2 4 7 8 9 10 11 12 13 | 56
2'F-ANA at 1 3 5 6 7 9 11 14 15 | 44.1
2'F-ANA at 1 3 4 6 7 9 10 11 12 15 | 72.7
2'F-ANA at 1 6 7 8 15 | 231
2'F-ANA at 1 5 9 11 12 15 | 88.7

Block 4 — technique: RNA Bind-n-Seq; form: RNA; medium: in vitro; concentration: 90 pmol; setting: 4-mer, random 30-nt RNA, single round; reference: input library; reading: higher = stronger binding
Target: ATP-dependent RNA helicase DDX3X, helicase core (DDX3X, Homo sapiens, UniProt O00571, residues 132-607)
UniProt O00571, sequence (132-607, looked up): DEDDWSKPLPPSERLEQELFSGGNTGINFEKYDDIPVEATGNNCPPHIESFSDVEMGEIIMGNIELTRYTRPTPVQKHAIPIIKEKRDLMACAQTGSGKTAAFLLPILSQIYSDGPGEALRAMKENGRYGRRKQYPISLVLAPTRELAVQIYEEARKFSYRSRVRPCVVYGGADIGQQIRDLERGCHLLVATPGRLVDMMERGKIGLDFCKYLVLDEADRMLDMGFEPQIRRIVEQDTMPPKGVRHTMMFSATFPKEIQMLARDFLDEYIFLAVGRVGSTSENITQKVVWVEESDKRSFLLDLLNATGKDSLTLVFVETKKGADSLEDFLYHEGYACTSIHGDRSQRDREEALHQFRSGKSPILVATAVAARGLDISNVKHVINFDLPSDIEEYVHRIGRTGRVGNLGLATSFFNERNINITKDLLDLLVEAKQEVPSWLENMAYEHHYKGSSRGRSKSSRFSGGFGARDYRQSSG
Added: 3 µM iPr-DMDA-PatA, 2 mM ADP, 2 mM phosphate
Oligonucleotide | 4-mer enrichment [fold]
GAUA | 1.21
UCAU | 0.949
GAGG | 1.07
CAAC | 1.16
UCCA | 1.09
UUGU | 0.974
GCAA | 1.03
GUAA | 1.15
UGAC | 0.992
CCUC | 1.02

Block 5 — target: CCNE1, cyclin fold, Cln2 fusion (human); technique: yeast growth competition, sequencing; medium: yeast; setting: weak parent motif; reference: not given; reading: higher = stronger binding
Parent: PKN2 docking peptide (human); VSAVQKLDFSDTM
Substitution | normalised enrichment score
VSDVQKLDFSDTM [A3D] | -0.451
VSAVQKLDFSCTM [D11C] | 1.28
VSAVQELDFSDTM [K6E] | -0.0194
VSAVQKLDFSDFM [T12F] | 0.934
VSAVQKGDFSDTM [L7G] | -0.721
VSAVQKLDGSDTM [F9G] | -0.146
VSAVQKLDFSDRM [T12R] | 0.0765
VSAVQKLQFSDTM [D8Q] | 0.66
VSAVQKLDDSDTM [F9D] | 0.245
VCAVQKLDFSDTM [S2C] | 0.372
VSAYQKLDFSDTM [V4Y] | 0.0259
VSAVQKLDFSETM [D11E] | 0.58
VSAVQKLDFSDTP [M13P] | -0.191
VSAVQKLDMSDTM [F9M] | -0.331

Block 6 — technique: protein binding microarray; form: double-stranded DNA, one strand shown; medium: in vitro; concentration: not given; reference: not given; reading: higher = stronger binding
Target: Histone acetyltransferase KAT6A, winged helix 1, GST fusion (KAT6A, Homo sapiens, UniProt Q92794, residues 1-85)
Setting: 8-mer, flanks averaged, mean of 2 arrays, mostly near background
Residues (chain): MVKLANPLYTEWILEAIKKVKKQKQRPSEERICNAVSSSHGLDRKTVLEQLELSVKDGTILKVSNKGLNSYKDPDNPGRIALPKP
Oligonucleotide | E-score
AGCCTCGC | 0.134
CGGGCCGC | 0.41
AGAGAACC | -0.08
CACCTCTG | -0.276
CTTTAGTC | -0.125
GGTCTTAA | -0.0356
GCAAAGAC | 0.00558
CTGGCATA | -0.176
CAGCATTA | -0.173
CTTAGCTA | -0.167
GGGCATTA | -0.00931
TCTGAGAA | -0.184
GCAGACAA | -0.232
AAAGTTAC | -0.038
ACACAATG | -0.319
AACTTCTC | -0.239
CGGGCGTC | 0.338
CTTGGCAA | -0.255
AGACTGGC | -0.0898
ACCTCCAG | -0.115
TAAATCGA | -0.0673
AACTACGC | 0.236
GCCACAAA | -0.0277

Further values, each from its own experiment — technique: RNA Bind-n-Seq; form: RNA; medium: in vitro; concentration: 100 nM; setting: RNA with constant flanks, ends assumed; reference: input RNA pool; reading: higher = stronger binding
Target: RING finger protein unkempt homolog, zinc fingers 1-6, SBP tag (UNK, Homo sapiens, UniProt Q9C0B0, residues 30-357)
UniProt Q9C0B0, sequence (30-357, looked up): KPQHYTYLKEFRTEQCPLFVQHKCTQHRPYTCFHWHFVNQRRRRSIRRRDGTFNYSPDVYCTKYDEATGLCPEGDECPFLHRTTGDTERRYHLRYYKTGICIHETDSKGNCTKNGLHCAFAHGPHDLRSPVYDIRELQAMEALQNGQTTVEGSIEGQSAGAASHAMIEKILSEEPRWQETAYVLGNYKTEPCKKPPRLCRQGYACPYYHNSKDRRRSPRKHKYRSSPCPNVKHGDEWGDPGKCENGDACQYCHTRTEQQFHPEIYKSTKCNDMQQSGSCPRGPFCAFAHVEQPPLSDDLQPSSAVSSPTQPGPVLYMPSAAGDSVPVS
Oligonucleotide | bound/input enrichment
GGGAGUUCUACAGUCCGACGAUCGUUGUGACCCAUUUAACAUACACAAGAAAUCCGCCAAAAAAAAUUUGCAUGUAAUUGACUCCGAUGAUGCCACUUUUCUGAGUGCUAAAUUUGGAAGACAGCUUGUACCUGGUUGGAAGCCAACAGAGGAUUGAGCAUCA | 0.607 ratio
GGGAGUUCUACAGUCCGACGAUCGGUUGAUGUUCUGAAGAACCACUUGGUGAAAGAAGGUCGAGCCGAUGAAGAAAUUGCGCUCCGAAUUAUCAAUGAGGGUGCUGCCAUCCUUCGGAGAGAGAAAACCAUGACCGAAGCCGACAACAGAGGAUUGAGCAUCA | 0.139 ratio

For quick reference, copied from above (block 2):
Oligonucleotide | log fluorescence [z-score]
TTAGGTATCGGGAATCGGTTAGTGCTA | 2.39
GACGGTTCACTTTTCCTGACGTGCTAG | 0.289
CCGCTTTTTTTTTTTTTTTTGTGCTAG | 0.788
TTAGGTTTCGACACTGAGTTAGTGCTA | 6.19
TTAGGTATCGGAACTGGGTTAGTGCTA | 2.57
TTGCATCTGGGTATTTTTCTGTGCTAG | 0.732
CGTAAGCAAAAATGATTGGTGTGCTAG | 0.252
GACGGTTTCGGACTGGGGATGTGCTAG | 3.86
GACGAACTGGGGTATAGAGACGTGCTA | -0.34
TTTTCATTGTTTTTCATCATGTGCTAG | 3.3
TTAGGGTTCCTACTGCTTTAGTGCTAG | -0.238
GACGATCTCAGACTGGTGACGTGCTAG | -0.358
GACGATATTAGTTTCGAGACGTGCTAG | 7.01
TTAGGACTGCTTTTCCTGTAGTGCTAG | -0.0255
TCACTTACCTCACTCGTACTGTGCTAG | 0.412
TTAGGTTTCCTTTCGCTTTAGTGCTAG | 7.28
